Assay results from different studies.
Lines come from different studies, so protocols differ.
Organism: Pseudomonas aeruginosa

Compound	read-out	method	strain	sample	time	temperature	MIC
CC(C)C[C@@H]1NC(=O)CSC[C@@H](C(=O)N[C@@H](CCCCN)C(N)=O)NC(=O)[C@H](CC(C)C)NC(=O)[C@H](CCCCN)NC(=O)[C@H](CCCCN)NC(=O)[C@@H]2CSCC(=O)N[C@@H](CC(C)C)C(=O)N[C@@H](CC(C)C)C(=O)N[C@@H](CCCCNC(=O)[C@H](CC(C)C)NC1=O)C(=O)N[C@@H](CCCCN)C(=O)N[C@@H](CC(C)C)C(=O)N[C@@H](CCCCN)C(=O)N2			PAO1		18 h		> 256 µg/mL
CC(=O)N[C@@H](Cc1c[nH]c2ccccc12)C(=O)NCCCCCCCCCCCC(=O)NCCCC[C@@H]1NC(=O)[C@H](CCCNC(=N)N)NC(=O)[C@H](CCCNC(=N)N)NC(=O)[C@H](CCCNC(=N)N)NC(=O)[C@H](CCCNC(=N)N)NC(=O)[C@H](CCCNC(=N)N)NC1=O		broth microdilution	PAO1			37 °C	167 µg/mL
CC[C@H](C)[C@H](NC(=O)[C@H](Cc1c[nH]cn1)NC(=O)[C@H](CCCCNC(=O)[C@@H](NC(=O)[C@H](CCCCN)NC(=O)CSC[C@H](NC(=O)[C@H](Cc1ccccc1)NC(=O)[C@H](CCCCNC(=O)[C@H](CC(C)C)NC(=O)[C@H](CCCCN)NC(=O)[C@H](CCCCN)NC(=O)C[C@@H]1O[C@@H](C)[C@@H](O)[C@@H](O)[C@@H]1O)NC(=O)[C@H](CC(C)C)NC(=O)[C@H](CCCCN)NC(=O)[C@H](CCCCN)NC(=O)c1ccc(O[C@@H]2O[C@H](CO)[C@H](O)[C@H](O)[C@H]2O)cc1)C(N)=O)[C@@H](C)CC)NC(=O)[C@@H](NC(=O)[C@H](CCCCN)NC(=O)CSC[C@H](NC(=O)[C@H](Cc1ccccc1)NC(=O)[C@H](CCCCNC(=O)[C@H](CC(C)C)NC(=O)[C@H](CCCCN)NC(=O)[C@H](CCCCN)NC(=O)C[C@@H]1O[C@@H](C)[C@@H](O)[C@@H](O)[C@@H]1O)NC(=O)[C@H](CC(C)C)NC(=O)[C@H](CCCCN)NC(=O)[C@H](CCCCN)NC(=O)c1ccc(O[C@@H]2O[C@H](CO)[C@H](O)[C@H](O)[C@H]2O)cc1)C(N)=O)[C@@H](C)CC)C(N)=O			PAO1	LB medium			> 64 µM
CC(C)C[C@@H]1NC(=O)[C@H](CC(C)C)NC(=O)[C@H](CCCCN)NC(=O)CSC[C@@H]2NC(=O)[C@H](CC(C)C)NC(=O)[C@H](CC(C)C)NC(=O)[C@H](CCCCN)NC(=O)[C@H](CCCCNC1=O)NC(=O)[C@H](CC(C)C)NC(=O)[C@H](CC(C)C)NC(=O)[C@H](CCCCN)NC(=O)CSC[C@@H](C(=O)N[C@@H](CCCCN)C(N)=O)NC(=O)[C@H](CCCCN)NC(=O)[C@H](CC(C)C)NC(=O)[C@H](CCCCN)NC2=O			PAO1		18 h		> 256 µg/mL
CCCCCCCCCCCCCC(=O)N[C@H](CCN)C(=O)N[C@H](C(=O)N[C@@H](CCN)C(=O)N[C@@H](CC(C)C)C(=O)N[C@@H](CCN)C(=O)N[C@H](Cc1ccccc1)C(=O)N[C@@H](CC(C)C)C(=O)N[C@@H](CCN)C(=O)N[C@H](Cc1ccc(O)cc1)C(=O)N[C@H](C(=O)N[C@@H](CC(=O)O)C(=O)O)C(C)C)[C@@H](C)O		broth microdilution	BNCC 186070				4 µg/mL
CC(C)[C@H](NC(=O)[C@@H](NC(=O)[C@H](CCCCN)NC(=O)CNC(=O)[C@@H](NC(=O)[C@@H](NC(=O)[C@H](CO)NC(=O)[C@@H](NC(=O)[C@@H](NC(=O)[C@@H]1CCCN1C(=O)[C@@H](NC(=O)[C@@H](NC(=O)CN)C(C)C)C(C)C)C(C)C)C(C)C)C(C)C)C(C)C)C(C)C)C(N)=O		broth microdilution					> 100 µM
CC(C)[C@@H]1NC(=O)[C@@H]2CCCN2C(=O)[C@@H](C)NC(=O)[C@H](CO)NC(=O)[C@H](C)NC(=O)[C@H](C(C)(C)C)NC(=O)[C@H](CCO)NC(=O)[C@H](Cc2c[nH]c3ccccc23)NC(=O)[C@H](CCO)NC(=O)[C@@H](CCN)NC(=O)[C@H](CCC(N)=O)NC(=O)[C@H](CCN)NC(=O)[C@H](Cc2ccc(O)cc2)NC(=O)[C@H]([C@@H](C)O)NC1=O		broth microdilution	ATCC 27853	CAMHB with polysorbate-80	16 h		> 64 µg/mL
CC[C@@H](C)[C@@H](NC(=O)[C@@H](C)NC(=O)[C@H](NC(=O)[C@@H](CC(=O)O)NC(=O)[C@@H](CCCCN)NC(=O)[C@@H](CO)NC(=O)[C@H](NC(=O)[C@@H](CC(N)=O)NC(=O)[C@@H](C)NC(=O)[C@H](NC(=O)[C@@H](CCC(=O)O)NC(=O)[C@@H](CCCCN)NC(=O)[C@H](NC(=O)[C@H](NC(=O)[C@@H](Cc1c[nH]cn1)NC(=O)[C@@H](CCCCN)NC(=O)[C@H](NC(=O)[C@@H](CCCCN)NC(=O)[C@@H](CCCCN)NC(=O)[C@H](NC(=O)[C@@H](CC(C)C)NC(=O)[C@@H](CCCCN)NC(=O)[C@@H](CC(N)=O)NC(=O)[C@@H](Cc1ccccc1)NC(=O)[C@@H](CCCNC(=N)N)NC(=O)[C@@H](CCCCN)NC(=O)[C@@H](CCCNC(=N)N)NC(=O)[C@@H](Cc1ccccc1)NC(=O)CN)C(C)C)C(C)C)[C@H](C)O)[C@H](C)CC)[C@H](C)O)C(C)C)C(C)C)C(=O)N[C@@H](C(=O)N[C@H](C)C(=O)NCC(=O)N[C@H](CO)C(=O)NCC(=O)N[C@@H](C(=O)N[C@H](C)C(=O)N[C@@H](C(=O)NCC(=O)N[C@H](C)C(=O)N[C@H](C)C(=O)N[C@H](CCSC)C(N)=O)C(C)C)C(C)C)C(C)C		broth microdilution	ATCC 27853	CAMHB			32 µg/mL
CCCCCCCCCCCCC[C@@H](O)Cc1cc(O)cc(O)c1		broth microdilution	PAO1 chloramphenicol-resistant			37 °C	> 64 µg/mL
CC1C(=NOCc2cc(-c3ccc(Cl)cc3)no2)C(C)C(c2ccc(Br)cc2)OC1c1ccc(Br)cc1 (stereo not drawn)	microbial growth	broth dilution	MTCC741		24 h		6.3 µg/mL
CC(C)[C@H](NC(=O)[C@H](CCCCN)NC(=O)[C@H](CCCNC(=N)N)NC(=O)[C@@H](NC(=O)[C@H](C)NC(=O)[C@H](CC(N)=O)NC(=O)[C@H](CCCNC(=N)N)NC(=O)[C@@H](NC(=O)[C@H](CCCCN)NC(=O)[C@H](CCCCN)NC(=O)[C@@H](NC(=O)[C@@H](NC(=O)[C@H](CCCNC(=N)N)NC(=O)[C@H](CCCNC(=N)N)NC(=O)[C@H](Cc1c[nH]c2ccccc12)NC(=O)[C@H](Cc1c[nH]c2ccccc12)NC(=O)CN)[C@@H](C)O)C(C)C)C(C)C)C(C)C)C(=O)O			ATCC 27853		18 h	37 °C	8 µg/mL
CC[C@H](C)[C@H](NC(=O)[C@H](C)NC(=O)[C@H](C)NC(=O)[C@H](Cc1ccccc1)NC(=O)[C@H](C)NC(=O)CNC(=O)[C@H](Cc1ccccc1)NC(=O)[C@@H](N)Cc1ccccc1)C(=O)N[C@@H](C)C(=O)N[C@@H](CO)C(=O)N[C@@H](CC(C)C)C(=O)N[C@H](C(=O)N[C@H](C(=O)N1CCC[C@H]1C(=O)N[C@@H](CCCCN)C(=O)N[C@@H](CC(C)C)C(=O)N[C@H](C(=O)N[C@@H](CCC(=O)O)C(=O)N[C@@H](CCCCN)C(=O)N[C@H](C(=O)N[C@@H](CCCCN)C(=O)N[C@@H](CCC(N)=O)C(=O)N[C@@H](C)C(=O)N[C@@H](CCCNC(=N)N)C(N)=O)[C@@H](C)CC)[C@@H](C)CC)[C@@H](C)CC)C(C)C		broth microdilution	ATCC 27853				> 50 µM
